Measurements collected from several papers.

O=C(Nc1nc2cccc(-c3ccc(CN4CCS(=O)(=O)CC4)cc3)n2n1)C1CC1  patients with adverse event (item: angina pectoris; rheumatoid arthritis patients; oral, 75 mg once daily, 4 weeks, any relatedness): 0%
CCOc1c([C@H](C)n2nc(C)c3c(N)ncnc32)cc(Cl)c(F)c1[C@@H]1CNC(=O)C1  patients (item: QTcF change ≤30 ms; previously treated B-cell malignancy; oral, 20 mg once daily, baseline QTcF ≤450 ms; reference: baseline): 100%
COc1cc(Nc2ncc3c(n2)-c2ccc(Cl)cc2C(c2c(F)cccc2OC)=NC3)ccc1C(=O)O  patients with adverse event (item: Diarrhea, grade 1; cancer patients, phase 1/2; oral, dose not given, added: pembrolizumab): 17%
FC(F)(F)c1ccc(CNc2ccc(Cc3c[nH]c4ncc(Cl)cc34)cn2)cn1  patients with treatment-related adverse event (item: hair colour changes; patients with TGCT; oral, 1000 mg/day, grade 3 or higher): 0%
C[C@@H](Nc1cc(F)cc(F)c1)c1cc(C(=O)N(C)C)cc2c(=O)cc(N3CCOCC3)oc12  patients discontinuing for AE (CTCAE v4, item: deep vein thrombosis; patients with advanced solid tumours; oral, dose not given, phase I dose expansion): 0%
NC(=O)N1c2ccccc2C=Cc2ccccc21  patients with Constipation (male patients; oral, dose not given, on-treatment adverse events): 20%
COc1ccc([C@@H](O)c2cc(-c3ncnc4cc(N5CCOCC5)ccc34)c(F)cc2Cl)nn1  patients with drug-related AE (item: Nausea; locally advanced rectal cancer patients; dose not given, all dose groups, added: capecitabine plus radiotherapy): 26%
CNC(=O)c1ccc(-c2cnc3ncc(Cc4ccc5ncccc5c4)n3n2)cc1F  patients with adverse event (item: Diarrhea; cancer patients; oral, dose not given, dose escalation, grade 3-4): 0%
Cc1cc(NC2CCN(C(=O)OC3CCN(C(=O)/C=C/CN(C)C)C3)CC2)n2ncc(C(C)C)c2n1 (stereo not shown)  patients with adverse event (Phase I dose escalation CTCAE v4.0, item: AST increased; patients with advanced solid tumours; dose not given, QD dosing any grade): 16%
C[C@@H](c1ccc2nccn2c1)n1nnc2ncc(-c3cnn(C)c3)nc21  patients with adverse events (item: treatment-related grade ≥3 Fatigue; EGFR-mutant MET-altered NSCLC; oral, dose not given, all): 1%

Excerpt of the above:
COc1ccc([C@@H](O)c2cc(-c3ncnc4cc(N5CCOCC5)ccc34)c(F)cc2Cl)nn1  patients with drug-related AE (item: Nausea; locally advanced rectal cancer patients; dose not given, all dose groups, added: capecitabine plus radiotherapy): 26%
